{"data": "Results of several laboratories", "note": "Each numbered part is a random draw from the data of one study; scales do not carry over between parts. Substitutions count along the parent as printed."}
{"data": "Sample 1", "target": "ABI1, truncated, D143A, DHFR fusion (Arabidopsis thaliana, UniProt P49597)", "technique": "DHFR PCA, dose-response", "sample": "yeast", "setting": "Hill fit, not affinity, not high confidence", "added": "(+)-ABA, dose series", "reading": "lower = more sensitive", "starting sequence": "PYL1, truncated, DHFR fusion (Arabidopsis thaliana, UniProt Q8VZS8); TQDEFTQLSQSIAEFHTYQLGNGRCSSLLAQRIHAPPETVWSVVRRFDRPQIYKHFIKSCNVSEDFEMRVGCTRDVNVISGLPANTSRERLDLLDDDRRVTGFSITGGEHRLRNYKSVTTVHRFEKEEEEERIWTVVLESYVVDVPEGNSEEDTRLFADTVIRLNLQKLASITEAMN"}
{"Variant": "D48L", "ABA EC50 [µM]": 692}
{"Variant": "P146Y", "ABA EC50 [µM]": 1060}
{"Variant": "I162Y", "ABA EC50 [µM]": 12.5}
{"Variant": "L82G", "ABA EC50 [µM]": 211}
{"Variant": "V43G", "ABA EC50 [µM]": 1020}
{"Variant": "V143R", "ABA EC50 [µM]": 118}
{"Variant": "S87V", "ABA EC50 [µM]": 10.1}
{"Variant": "L91I", "ABA EC50 [µM]": 264}
{"Variant": "T173D", "ABA EC50 [µM]": 742}
{"Variant": "I162E", "ABA EC50 [µM]": 3.83}
{"Variant": "V40H", "ABA EC50 [µM]": 2.52}
{"Variant": "R74T", "ABA EC50 [µM]": 38.9}
{"Variant": "V118D", "ABA EC50 [µM]": 1390}
{"Variant": "L91D", "ABA EC50 [µM]": 2.3}
{"Variant": "L169H", "ABA EC50 [µM]": 8.2}
{"Variant": "T120L", "ABA EC50 [µM]": 924}
{"Variant": "R88P", "ABA EC50 [µM]": 1160}
{"Variant": "D48I", "ABA EC50 [µM]": 585}
{"Variant": "W41L", "ABA EC50 [µM]": 64}
{"data": "Sample 2", "target": "CCNE2, cyclin fold, Cln2 fusion (human)", "technique": "yeast growth competition, sequencing", "sample": "yeast", "setting": "weak parent motif", "baseline": "not given", "reading": "higher = stronger binding", "starting sequence": "AKAP12 docking peptide (human); GSPLKKLFTSTGL; partner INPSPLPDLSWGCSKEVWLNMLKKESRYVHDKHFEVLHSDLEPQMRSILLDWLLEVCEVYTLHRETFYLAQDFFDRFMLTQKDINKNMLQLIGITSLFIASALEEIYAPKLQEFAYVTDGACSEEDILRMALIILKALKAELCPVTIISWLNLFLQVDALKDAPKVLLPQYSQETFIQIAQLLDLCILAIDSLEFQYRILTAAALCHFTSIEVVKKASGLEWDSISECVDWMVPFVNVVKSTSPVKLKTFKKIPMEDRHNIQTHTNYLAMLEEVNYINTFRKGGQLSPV"}
{"Variant": "GSPLKKLFASTGL [T9A]", "normalised enrichment score": 0.52}
{"Variant": "ASPLKKLFTSTGL [G1A]", "normalised enrichment score": 0.767}
{"Variant": "GSPLKKAFTSTGL [L7A]", "normalised enrichment score": -0.269}
{"Variant": "GSPLRKLLTSTGL [K5R F8L]", "normalised enrichment score": 0.549}
{"Variant": "GSPLAKLFTSTGL [K5A]", "normalised enrichment score": -0.303}
{"Variant": "GSPAKKLFTSTGL [L4A]", "normalised enrichment score": -0.0125}
{"Variant": "GSPLAKAFTSTGL [K5A L7A]", "normalised enrichment score": -0.252}
{"Variant": "GSPLRKLFTSTGL [K5R]", "normalised enrichment score": 0.33}
{"Variant": "GSPLKKLFTSAGL [T11A]", "normalised enrichment score": 0.0459}
{"Variant": "GSPLKKLFTATGL [S10A]", "normalised enrichment score": 0.5}
{"data": "Sample 3", "target": "RNA binding protein fox-1 homolog 2, RRM domain, GST-SBP tag (RBFOX2, Homo sapiens, UniProt O43251-10, residues 100-194)", "technique": "RNA Bind-n-Seq", "molecule type": "RNA", "sample": "in vitro", "concentration": "365 nM", "setting": "natural RNA segment, single round, ends assumed", "baseline": "no-protein control", "reading": "higher = stronger binding", "constant ends, left off below": "GGGAGUUCUACAGUCCGACGAUC … UGGAAUUCUCGGGUGCCAA", "Target sequence (chain)": "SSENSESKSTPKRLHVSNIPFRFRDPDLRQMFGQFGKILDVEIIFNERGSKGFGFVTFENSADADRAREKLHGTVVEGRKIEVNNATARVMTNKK"}
{"Oligonucleotide": "GCCAGGAAGACCCAUAACUGGUUUUAACACUAACUAGAGGGAAUGACUUCUUUGCAUAGUGAGUGACUUGGGCCUUCACAAACAGGGUGUGGAGUGGCAGGCAGAGGCCU", "RBNS enrichment (R)": 0.586}
{"Oligonucleotide": "CAUGAGCCAUUAUCUAGGAUACUUUCUCUCUCUUUCAUGCAGUUCAAAGCCCAGGUAUCUCUCAGAUCUGCUGCCUGAGAAAUAAGCUCCUUUAUCAGUUAGCUGUUUUA", "RBNS enrichment (R)": 0.409}
{"Oligonucleotide": "AGAAUGGUCAUAUUCACUUUGUGGGCUGCCCAUAAUCUUUCUUGGGCAUUCACAACUCUUGAGUUUGGUGUUCAGGCAUCAUUAUUAAAAAGUGGAGUCCUAUGUACCAG", "RBNS enrichment (R)": 0.201}
{"Oligonucleotide": "GUGUGUGGCUGUGGUUGUUUAUAAAUGAGACUAAGUCUGAUUUGCAUAAGGGCUUUCAAAAAUUAAGUCUGUCCAGUAGAGUGAUUUUGCUUUCAUUAUUACCAAGUCAA", "RBNS enrichment (R)": 0.384}
{"Oligonucleotide": "CUCUGACCCUUCCUGUUGGUAUUUAUGAAAUCUCAAAGAGAUGAGCCACCUUGGCUUCCAAUAUGGCAAGAGGGUGCUGGGAGAAGGUGAAGAUCAGUCUAAGCUGCCAC", "RBNS enrichment (R)": 0.321}
{"Oligonucleotide": "CCUUUCAGCCUUGCUGACUUCUCCCUAUAAAAGUAAAGCCUUUUUCUGCCCCAGCUCUGAGACACUUGCAGAUCUUAAGGUCUGAGACUUGCUGAUUUUCUGGUUGGAGU", "RBNS enrichment (R)": 0.344}
{"Oligonucleotide": "CUGUGUGUGCUCUGGACACUGUACAUUUGUACCCAACCAAGUGGGUCAAGUCGGAGAGGGACUCUUCAGUAUGGAGGCAGCCUGUGGAGUGCAGCGCCUUUGAGGCUCUG", "RBNS enrichment (R)": 0.758}
{"Oligonucleotide": "AGCUCUUUUAAUUGGUGACAGAUCAUGCGGUAUGUCCCUAUUACAAAUGUAAGUCUUGGAGAAGGGUCCUUCAUGGUGUCCACAUGUGCAGGCUCAGGUAGAGGUCUCAG", "RBNS enrichment (R)": 0.287}
{"data": "Sample 4", "target": "NFE2, bZIP domain (human)", "technique": "DHFR protein complementation", "sample": "yeast", "setting": "single substitutions, most at no-binding floor", "baseline": "wild-type JUN-FOS pair", "reading": "higher = stronger binding", "starting sequence": "JUN, bZIP domain (human); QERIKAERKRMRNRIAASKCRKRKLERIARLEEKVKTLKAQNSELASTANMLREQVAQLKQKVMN; partner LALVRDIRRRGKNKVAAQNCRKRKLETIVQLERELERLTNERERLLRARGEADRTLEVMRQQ"}
{"Variant": "N42V", "binding fitness [natural log]": -1.34}
{"Variant": "R30K", "binding fitness [natural log]": -1.28}
{"Variant": "R53V", "binding fitness [natural log]": -1.36}
{"Variant": "A57G", "binding fitness [natural log]": -1.33}
{"Variant": "T48K", "binding fitness [natural log]": -1.51}
{"Variant": "K34H", "binding fitness [natural log]": -1.37}
{"Variant": "Q55P", "binding fitness [natural log]": -1.46}
{"Variant": "A40C", "binding fitness [natural log]": -1.26}
{"Variant": "V35T", "binding fitness [natural log]": -1.42}
{"Variant": "L45W", "binding fitness [natural log]": -1.42}
{"Variant": "K34N", "binding fitness [natural log]": -1.5}
{"Variant": "V56Q", "binding fitness [natural log]": -1.46}
{"Variant": "L59R", "binding fitness [natural log]": -1.5}
{"Variant": "K34G", "binding fitness [natural log]": -1.54}
{"Variant": "L31W", "binding fitness [natural log]": -1.54}
{"Variant": "R53D", "binding fitness [natural log]": -1.44}
{"Variant": "V56W", "binding fitness [natural log]": -1.52}
{"Variant": "S47T", "binding fitness [natural log]": -1.48}
{"Variant": "K34D", "binding fitness [natural log]": -1.28}
{"Variant": "M51V", "binding fitness [natural log]": -1.51}
{"Variant": "A46S", "binding fitness [natural log]": -1.35}
{"data": "Sample 5", "target": "CEP164, C-terminal peptide (human)", "technique": "DHFR complementation, deep sequencing", "sample": "yeast", "setting": "single substitutions, model-inferred values", "baseline": "wild type", "reading": "higher = weaker binding", "starting sequence": "PDZK1, PDZ domain 2 (human); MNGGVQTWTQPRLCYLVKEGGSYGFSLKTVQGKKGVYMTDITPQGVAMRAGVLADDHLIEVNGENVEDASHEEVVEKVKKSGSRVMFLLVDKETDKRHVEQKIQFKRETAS; partner HNRVKVYRF"}
{"Variant": "N2Y", "binding free energy change [kcal/mol]": -0.0104}
{"Variant": "G51H", "binding free energy change [kcal/mol]": 0.972}
{"Variant": "E100P", "binding free energy change [kcal/mol]": -0.124}
{"Variant": "E60G", "binding free energy change [kcal/mol]": -0.0718}
{"Variant": "K18D", "binding free energy change [kcal/mol]": 1.13}
{"Variant": "C14T", "binding free energy change [kcal/mol]": 0.179}
{"Variant": "Y23H", "binding free energy change [kcal/mol]": 1.47}
{"Variant": "Y37F", "binding free energy change [kcal/mol]": 0.0674}
{"Variant": "D40H", "binding free energy change [kcal/mol]": 0.519}
{"Variant": "K96S", "binding free energy change [kcal/mol]": -0.0224}
{"Variant": "R97K", "binding free energy change [kcal/mol]": -0.215}
{"Variant": "R97Q", "binding free energy change [kcal/mol]": -0.0105}
{"Variant": "A69C", "binding free energy change [kcal/mol]": -0.213}
{"data": "Mixed results"}
{"Molecule": "PhoQ, residues 284 288 289 292 302 303 ASTSDA", "target": "PhoP, residues 12 14 15 18 19 TQAIL (Escherichia coli, UniProt P23836)", "test": "Sort-seq, refers to: YFP reporter", "system": "E. coli", "conditions": "PhoQ-PhoP variant library, added: 10 µM Mg2+", "how to read": "baseline: high Mg2+ state, higher = stronger signaling", "quantity": "fold induction", "result": 12.4}
{"note": "Repeated from above (sample 4):"}
{"Variant": "K34G", "binding fitness [natural log]": -1.54}
{"Variant": "L59R", "binding fitness [natural log]": -1.5}
{"Variant": "V56Q", "binding fitness [natural log]": -1.46}
{"Variant": "R30K", "binding fitness [natural log]": -1.28}
{"Variant": "K34H", "binding fitness [natural log]": -1.37}
{"Variant": "A57G", "binding fitness [natural log]": -1.33}
{"Variant": "M51V", "binding fitness [natural log]": -1.51}
{"Variant": "R53V", "binding fitness [natural log]": -1.36}
